Assay results collected from several papers.
Parts stem from different laboratories: compare values within a part only. “And” joins repeats or separate records; there may be more than shown.
Chain of UniProt P42336 (whole entry, unmodified, looked up): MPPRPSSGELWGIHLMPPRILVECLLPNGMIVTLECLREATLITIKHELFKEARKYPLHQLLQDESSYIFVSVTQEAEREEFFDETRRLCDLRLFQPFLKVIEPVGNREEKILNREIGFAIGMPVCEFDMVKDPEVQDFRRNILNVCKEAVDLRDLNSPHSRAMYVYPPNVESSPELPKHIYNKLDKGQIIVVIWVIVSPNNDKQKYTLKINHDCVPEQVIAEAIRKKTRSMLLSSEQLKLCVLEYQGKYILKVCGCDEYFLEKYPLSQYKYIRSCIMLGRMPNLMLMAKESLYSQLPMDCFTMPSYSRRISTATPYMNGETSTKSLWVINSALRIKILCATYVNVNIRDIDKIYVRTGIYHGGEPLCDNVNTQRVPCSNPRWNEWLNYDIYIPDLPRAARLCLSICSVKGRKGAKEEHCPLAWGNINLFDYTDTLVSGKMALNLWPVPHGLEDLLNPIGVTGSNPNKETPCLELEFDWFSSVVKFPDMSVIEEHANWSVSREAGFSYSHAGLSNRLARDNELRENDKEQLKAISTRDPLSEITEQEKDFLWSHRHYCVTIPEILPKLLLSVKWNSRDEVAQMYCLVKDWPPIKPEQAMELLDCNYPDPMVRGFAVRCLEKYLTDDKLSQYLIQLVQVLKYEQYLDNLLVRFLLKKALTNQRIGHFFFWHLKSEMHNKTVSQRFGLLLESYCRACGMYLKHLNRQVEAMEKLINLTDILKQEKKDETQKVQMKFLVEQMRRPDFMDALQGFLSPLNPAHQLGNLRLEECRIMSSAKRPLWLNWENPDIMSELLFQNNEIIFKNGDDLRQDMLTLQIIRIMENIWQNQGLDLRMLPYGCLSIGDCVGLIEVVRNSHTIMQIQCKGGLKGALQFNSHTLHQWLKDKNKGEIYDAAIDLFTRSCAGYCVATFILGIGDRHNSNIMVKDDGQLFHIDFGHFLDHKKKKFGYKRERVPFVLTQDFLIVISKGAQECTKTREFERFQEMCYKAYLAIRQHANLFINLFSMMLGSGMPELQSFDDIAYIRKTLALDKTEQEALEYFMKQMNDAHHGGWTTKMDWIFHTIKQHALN
Chain of UniProt P53778 (whole entry, looked up): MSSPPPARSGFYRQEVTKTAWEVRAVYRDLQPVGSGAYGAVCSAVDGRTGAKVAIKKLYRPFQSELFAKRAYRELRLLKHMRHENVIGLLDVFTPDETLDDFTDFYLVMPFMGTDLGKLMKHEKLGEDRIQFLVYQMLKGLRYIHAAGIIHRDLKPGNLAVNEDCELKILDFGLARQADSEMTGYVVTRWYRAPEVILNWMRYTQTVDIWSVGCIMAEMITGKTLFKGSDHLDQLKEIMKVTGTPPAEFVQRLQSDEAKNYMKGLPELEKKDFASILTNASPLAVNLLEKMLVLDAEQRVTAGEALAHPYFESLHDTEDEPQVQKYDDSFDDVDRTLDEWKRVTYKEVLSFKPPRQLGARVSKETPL
Chain of UniProt P35626 (whole entry, looked up): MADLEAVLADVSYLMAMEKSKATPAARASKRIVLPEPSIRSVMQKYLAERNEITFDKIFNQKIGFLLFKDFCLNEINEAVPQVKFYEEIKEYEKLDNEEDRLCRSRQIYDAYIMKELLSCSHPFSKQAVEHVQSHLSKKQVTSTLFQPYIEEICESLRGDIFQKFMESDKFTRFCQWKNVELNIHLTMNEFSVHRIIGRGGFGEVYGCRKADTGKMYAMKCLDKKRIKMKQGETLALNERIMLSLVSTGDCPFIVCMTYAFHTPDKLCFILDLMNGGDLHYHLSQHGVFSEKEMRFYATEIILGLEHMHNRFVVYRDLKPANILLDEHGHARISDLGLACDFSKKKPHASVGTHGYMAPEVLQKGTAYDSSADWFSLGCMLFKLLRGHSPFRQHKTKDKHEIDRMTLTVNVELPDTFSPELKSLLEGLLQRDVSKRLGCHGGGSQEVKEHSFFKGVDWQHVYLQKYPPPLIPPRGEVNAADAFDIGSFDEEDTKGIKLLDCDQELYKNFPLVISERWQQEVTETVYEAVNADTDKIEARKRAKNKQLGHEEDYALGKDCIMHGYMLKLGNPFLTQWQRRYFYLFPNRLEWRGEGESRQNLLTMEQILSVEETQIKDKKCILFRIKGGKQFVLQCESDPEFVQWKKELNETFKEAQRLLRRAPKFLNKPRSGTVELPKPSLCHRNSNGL
Chain of UniProt Q9P1W9 (whole entry, looked up): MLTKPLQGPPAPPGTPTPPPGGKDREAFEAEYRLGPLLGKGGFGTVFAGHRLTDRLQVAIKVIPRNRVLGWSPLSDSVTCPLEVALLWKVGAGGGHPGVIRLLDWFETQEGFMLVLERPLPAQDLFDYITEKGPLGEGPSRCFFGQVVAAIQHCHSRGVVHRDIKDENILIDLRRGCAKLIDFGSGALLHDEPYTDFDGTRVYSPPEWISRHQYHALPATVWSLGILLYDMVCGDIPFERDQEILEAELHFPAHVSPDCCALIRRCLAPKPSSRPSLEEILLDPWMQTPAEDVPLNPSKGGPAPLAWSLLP
Chain of UniProt P41240 (whole entry, looked up): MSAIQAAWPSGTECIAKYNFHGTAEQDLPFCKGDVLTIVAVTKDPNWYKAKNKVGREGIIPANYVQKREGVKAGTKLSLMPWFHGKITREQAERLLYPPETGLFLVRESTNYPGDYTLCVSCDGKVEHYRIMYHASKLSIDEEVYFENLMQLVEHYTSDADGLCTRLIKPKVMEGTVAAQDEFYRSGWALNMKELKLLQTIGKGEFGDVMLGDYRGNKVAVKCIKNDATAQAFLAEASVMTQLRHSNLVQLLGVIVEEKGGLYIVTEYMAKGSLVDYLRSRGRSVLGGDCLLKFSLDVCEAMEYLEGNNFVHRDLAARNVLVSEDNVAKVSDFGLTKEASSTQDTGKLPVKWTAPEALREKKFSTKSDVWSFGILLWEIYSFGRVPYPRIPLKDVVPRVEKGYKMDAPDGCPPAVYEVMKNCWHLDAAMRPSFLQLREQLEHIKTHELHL
Chain of UniProt Q15208 (whole entry, looked up): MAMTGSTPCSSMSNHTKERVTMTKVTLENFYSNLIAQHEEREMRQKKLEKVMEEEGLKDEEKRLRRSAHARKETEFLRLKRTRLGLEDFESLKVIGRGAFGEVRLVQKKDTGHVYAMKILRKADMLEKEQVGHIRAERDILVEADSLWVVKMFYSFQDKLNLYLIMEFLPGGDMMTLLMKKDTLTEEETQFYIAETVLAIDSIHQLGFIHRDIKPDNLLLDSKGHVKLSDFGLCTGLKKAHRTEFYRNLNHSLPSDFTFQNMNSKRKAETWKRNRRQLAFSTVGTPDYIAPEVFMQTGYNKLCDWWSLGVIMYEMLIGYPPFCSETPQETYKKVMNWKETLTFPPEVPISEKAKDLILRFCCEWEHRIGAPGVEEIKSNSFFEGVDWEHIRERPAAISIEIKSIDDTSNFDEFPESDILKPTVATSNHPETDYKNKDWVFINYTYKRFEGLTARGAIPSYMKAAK

Study 1 — cell line: mouse MPNST tumor cells; technique: high-content nuclear imaging; measured: cell number; tested at: 10 µM; time: 12 h; setting: mean of 2 replicates; baseline: plate mean; direction: higher = more cells
| Compound | nuclei count |
| --- | --- |
| Nc1cc(F)ccc1NC(=O)/C=C/c1cnn(C/C=C/c2ccccc2)c1 | -0.902 z-score |
| O=C(Nc1nc2cc(C(F)(F)F)cc(NC3CC3)n2n1)c1cccnc1 | -4.53 z-score |
| OC(CCN1CCCCC1)(c1ccccc1)C1CCCCC1 (centres unmarked) | 2.15 z-score and 2.8 z-score |
| CC(=O)N(CC(O)CO)c1c(I)c(C(=O)NCC(O)CO)c(I)c(C(=O)NCC(O)CO)c1I (centres unmarked) | 0.915 z-score |
| CNCCC(Oc1ccc(C(F)(F)F)cc1)c1ccccc1 (centres unmarked) | -3.73 z-score |
| c1cc(-c2sc(-c3ccncc3)c(-c3ccncc3)c2-c2ccncc2)ccn1 | -1.65 z-score |
| O=S(=O)(NCC1CC1)c1ccc(Nc2nccc(N3CCCc4cc(O)ccc43)n2)cc1 | -2.83 z-score |
| Cc1ccc(-c2cnccc2-c2cnc(Nc3ccc(O)cc3)s2)c(Cl)c1 | -4.48 z-score |
| C=CCSCC1Nc2cc(Cl)c(S(N)(=O)=O)cc2S(=O)(=O)N1 (centres unmarked) | 1.18 z-score |

Study 2 — observed: enzyme activity; mode: inhibitor; tested at: 0.5 µM; baseline: control
Structure (SMILES): FC(F)(F)c1ccc(/C=C/c2nc(COc3ccc(CCCCn4ccnn4)cc3)co2)cc1
| target | remaining activity |
| --- | --- |
| Mitogen-activated protein kinase kinase kinase kinase 2 (MAP4K2, Homo sapiens, UniProt Q12851) | 105% |
| RAC-gamma serine/threonine-protein kinase (AKT3, Homo sapiens, UniProt Q9Y243) | 96.3% |
| Tyrosine-protein kinase BTK (BTK, Homo sapiens, UniProt Q06187) | 98.2% |
| Protein kinase C delta type (PRKCD, Homo sapiens, UniProt Q05655) | 99.6% |
| Leucine-rich repeat serine/threonine-protein kinase 2 (LRRK2, Homo sapiens, UniProt Q5S007) | 94.8% |
| Serine/threonine-protein kinase Nek4 (NEK4, Homo sapiens, UniProt P51957) | 90% |
| Mitogen-activated protein kinase 13 (MAPK13, Homo sapiens, UniProt O15264) | 99.1% |
| Serine/threonine-protein kinase WNK2 (WNK2, Homo sapiens, UniProt Q9Y3S1) | 95.9% |
| Dual specificity mitogen-activated protein kinase kinase 6 (MAP2K6, Homo sapiens, UniProt P52564) | 100% |
| Protein kinase C iota type (PRKCI, Homo sapiens, UniProt P41743) | 92.6% |
| Mast/stem cell growth factor receptor Kit (KIT, Homo sapiens, UniProt P10721) | 98.8% |
| Casein kinase I isoform alpha (CSNK1A1, Homo sapiens, UniProt P48729) | 98.4% |
| Mitogen-activated protein kinase kinase kinase 10 (MAP3K10, Homo sapiens, UniProt Q02779) | 98.9% |
| Cyclin-dependent kinase 9, with cyclin T1 (CDK9, Homo sapiens, UniProt P50750) | 99.5% |
| Interleukin-1 receptor-associated kinase 4 (IRAK4, Homo sapiens, UniProt Q9NWZ3) | 97.7% |
| Serine/threonine-protein kinase Chk1 (CHEK1, Homo sapiens, UniProt O14757) | 108% |
| Casein kinase II subunit alpha (CSNK2A1, Homo sapiens, UniProt P68400) | 97.5% |
| Tyrosine-protein kinase Lyn (LYN, Homo sapiens, UniProt P07948) | 95.8% |
| Serine/threonine-protein kinase PLK2 (PLK2, Homo sapiens, UniProt Q9NYY3) | 99.7% |
| Ephrin type-A receptor 5 (EPHA5, Homo sapiens, UniProt P54756) | 99.9% |
| MAP kinase-interacting serine/threonine-protein kinase 2 (MKNK2, Homo sapiens, UniProt Q9HBH9) | 101% |
| Serine/threonine-protein kinase 38 (STK38, Homo sapiens, UniProt Q15208) | 102% |
| Mitogen-activated protein kinase 12 (MAPK12, Homo sapiens, UniProt P53778) | 98.3% |

Study 3 — observed: enzyme activity; mode: inhibitor; tested at: 10 µM
Target: Calcium/calmodulin-dependent protein kinase type II subunit alpha (CAMK2A, Homo sapiens, UniProt Q9UQM7)
Chain of UniProt Q9UQM7 (whole entry, looked up): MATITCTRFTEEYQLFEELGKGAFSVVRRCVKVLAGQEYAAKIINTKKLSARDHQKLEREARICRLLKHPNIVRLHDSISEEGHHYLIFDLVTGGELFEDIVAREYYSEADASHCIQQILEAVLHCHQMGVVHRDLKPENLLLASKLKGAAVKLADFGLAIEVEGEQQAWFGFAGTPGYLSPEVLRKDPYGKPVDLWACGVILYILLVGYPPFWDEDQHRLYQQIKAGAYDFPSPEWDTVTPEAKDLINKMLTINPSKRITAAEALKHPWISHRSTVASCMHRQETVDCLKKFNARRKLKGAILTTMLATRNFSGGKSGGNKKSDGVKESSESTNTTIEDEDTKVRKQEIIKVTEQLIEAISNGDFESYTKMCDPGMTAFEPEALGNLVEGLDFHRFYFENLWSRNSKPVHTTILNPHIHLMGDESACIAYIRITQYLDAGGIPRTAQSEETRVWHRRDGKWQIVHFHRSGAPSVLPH
| SMILES | inhibition [%] |
| --- | --- |
| COc1cc(O)c2c(=O)cc(-c3ccc(OC)c(OC)c3)oc2c1 | -27 |
| O=c1c(-c2ccc(O)cc2)coc2cc(O)cc(O)c12 | -3 |
| O=C(O)Cc1cccc(O)c1 | -3 |
| COc1ccc(-c2cc(=O)c3c(O)c(OC)c(OC)c(OC)c3o2)cc1OC | -24 |
| CNCCC[C@]12CC[C@H](c3ccccc31)c1ccccc12 | -13 |
| CN1CC(=O)NC1=N | -29 |
| Nc1ccn([C@H]2C[C@H](O)[C@@H](CO)O2)c(=O)n1 | -12 |
| CC1CCC2(OC1)OC1CC3C4CC=C5CC(OC6OC(CO)C(OC7OC(CO)C(O)C7O)C(OC7OC(C)C(O)C(O)C7O)C6O)CCC5(C)C4CCC3(C)C1C2C (centres unmarked) | -15 |
| C/C(=C\CNc1ncnc2c1ncn2[C@@H]1O[C@H](CO)[C@@H](O)[C@H]1O)CO | -10 |
| Cc1ccc(C)c(OCCCC(C)(C)C(=O)O)c1 | 11 |
| C[C@H](CC[C@@H](O[C@@H]1O[C@H](CO)[C@@H](O)[C@H](O)[C@H]1O)C(C)(C)O)[C@H]1CC[C@@]2(C)[C@@H]3CC=C4[C@@H](CC[C@H](O)C4(C)C)[C@]3(C)[C@H](O)C[C@]12C | 51 |
| O=C(O)c1cn[nH]c1 | -34 |

Study 4 — observed: cell-free assay; technique: competition with immobilised ligand; tested at: 1 µM
SMILES: COc1ccc2c(O[C@@H]3C[C@H]4C(=O)N[C@]5(C(=O)O)CC5/C=C\CCCCC[C@H](NC(=O)OC5CCCC5)C(=O)N4C3)cc(-c3csc(NC(=O)C(C)C)n3)nc2c1C (some centres unmarked)
| target | remaining binding |
| --- | --- |
| Mitogen-activated protein kinase kinase kinase 9 (MAP3K9, Homo sapiens, UniProt P80192) | 100% |
| Mitogen-activated protein kinase kinase kinase 2 (MAP3K2, Homo sapiens, UniProt Q9Y2U5) | 100% |
| Phosphatidylinositol 4,5-bisphosphate 3-kinase catalytic subunit alpha isoform (PIK3CA, Homo sapiens, UniProt P42336) | 75% |
| Fibroblast growth factor receptor 3 (FGFR3, Homo sapiens, UniProt P22607, G697C) | 88% |
| Serine/threonine-protein kinase PAK 3 (PAK3, Homo sapiens, UniProt O75914) | 100% |
| G protein-coupled receptor kinase 3 (GRK3, Homo sapiens, UniProt P35626) | 99% |
| Tyrosine-protein kinase CSK (CSK, Homo sapiens, UniProt P41240) | 100% |
| Phosphatidylinositol 4,5-bisphosphate 3-kinase catalytic subunit gamma isoform (PIK3CG, Homo sapiens, UniProt P48736) | 65% |
| Tyrosine-protein kinase JAK1, JH1 (JAK1, Homo sapiens, UniProt P23458) | 100% |
| Serine/threonine-protein kinase pim-2 (PIM2, Homo sapiens, UniProt Q9P1W9) | 100% |
| Cyclin-dependent kinase 16 (CDK16, Homo sapiens, UniProt Q00536) | 79% |
| Serine/threonine-protein kinase ULK3 (ULK3, Homo sapiens, UniProt Q6PHR2) | 93% |
| Phosphatidylinositol 4,5-bisphosphate 3-kinase catalytic subunit alpha isoform (PIK3CA, Homo sapiens, UniProt P42336, C420R) | 100% |
| Serine/threonine-protein kinase PAK 6 (PAK6, Homo sapiens, UniProt Q9NQU5) | 100% |
| Epidermal growth factor receptor (EGFR, Homo sapiens, UniProt P00533) | 92% |

For quick reference, copied from above (study 2):
| target | remaining activity |
| --- | --- |
| Cyclin-dependent kinase 9, with cyclin T1 (CDK9, Homo sapiens, UniProt P50750) | 99.5% |
| Interleukin-1 receptor-associated kinase 4 (IRAK4, Homo sapiens, UniProt Q9NWZ3) | 97.7% |
| Serine/threonine-protein kinase Chk1 (CHEK1, Homo sapiens, UniProt O14757) | 108% |
